{"data": "Results pooled from the literature", "note": "A part holds a random share of what one study measured. “And” joins repeats or separate records; there may be more than shown.", "chain of UniProt Q16832 (whole entry, looked up)": "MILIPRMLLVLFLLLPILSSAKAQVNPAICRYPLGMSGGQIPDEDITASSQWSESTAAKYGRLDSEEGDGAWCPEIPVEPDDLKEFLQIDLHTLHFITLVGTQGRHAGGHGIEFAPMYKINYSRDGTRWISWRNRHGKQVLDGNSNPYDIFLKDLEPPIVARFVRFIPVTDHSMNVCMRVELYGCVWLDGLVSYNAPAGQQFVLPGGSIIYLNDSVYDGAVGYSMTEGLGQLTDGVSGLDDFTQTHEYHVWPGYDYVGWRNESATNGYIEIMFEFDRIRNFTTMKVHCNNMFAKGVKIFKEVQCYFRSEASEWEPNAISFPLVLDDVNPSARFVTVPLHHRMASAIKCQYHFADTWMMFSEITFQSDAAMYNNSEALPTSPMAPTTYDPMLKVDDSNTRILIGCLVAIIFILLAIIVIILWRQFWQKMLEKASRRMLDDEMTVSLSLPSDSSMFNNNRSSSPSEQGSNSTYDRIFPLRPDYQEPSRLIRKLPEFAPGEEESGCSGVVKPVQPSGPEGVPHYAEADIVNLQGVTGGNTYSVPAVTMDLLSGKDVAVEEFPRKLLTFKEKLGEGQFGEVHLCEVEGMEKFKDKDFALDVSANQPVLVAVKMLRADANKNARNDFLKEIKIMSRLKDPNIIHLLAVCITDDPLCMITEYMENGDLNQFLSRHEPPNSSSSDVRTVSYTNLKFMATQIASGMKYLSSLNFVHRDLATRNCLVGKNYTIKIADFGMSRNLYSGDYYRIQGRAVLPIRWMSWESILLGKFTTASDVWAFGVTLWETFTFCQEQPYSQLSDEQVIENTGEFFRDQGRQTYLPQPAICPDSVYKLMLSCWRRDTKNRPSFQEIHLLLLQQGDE", "chain of UniProt P9WI81 (whole entry, looked up)": "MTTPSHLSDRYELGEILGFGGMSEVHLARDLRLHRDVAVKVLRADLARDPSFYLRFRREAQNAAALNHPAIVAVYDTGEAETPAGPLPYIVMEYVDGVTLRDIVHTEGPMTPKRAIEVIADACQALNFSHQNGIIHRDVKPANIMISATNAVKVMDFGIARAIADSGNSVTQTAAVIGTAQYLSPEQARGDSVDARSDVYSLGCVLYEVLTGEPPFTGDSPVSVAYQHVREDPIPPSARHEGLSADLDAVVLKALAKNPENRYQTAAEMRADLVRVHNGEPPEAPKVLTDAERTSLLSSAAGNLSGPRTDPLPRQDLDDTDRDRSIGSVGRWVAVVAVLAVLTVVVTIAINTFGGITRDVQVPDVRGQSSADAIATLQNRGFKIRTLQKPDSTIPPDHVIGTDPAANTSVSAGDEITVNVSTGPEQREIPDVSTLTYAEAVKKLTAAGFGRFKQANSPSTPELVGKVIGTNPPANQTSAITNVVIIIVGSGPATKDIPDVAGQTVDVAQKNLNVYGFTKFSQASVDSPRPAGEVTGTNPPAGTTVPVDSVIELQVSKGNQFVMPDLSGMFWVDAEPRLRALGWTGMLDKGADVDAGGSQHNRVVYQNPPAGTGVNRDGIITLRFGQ", "chain of UniProt P61075 (whole entry, looked up)": "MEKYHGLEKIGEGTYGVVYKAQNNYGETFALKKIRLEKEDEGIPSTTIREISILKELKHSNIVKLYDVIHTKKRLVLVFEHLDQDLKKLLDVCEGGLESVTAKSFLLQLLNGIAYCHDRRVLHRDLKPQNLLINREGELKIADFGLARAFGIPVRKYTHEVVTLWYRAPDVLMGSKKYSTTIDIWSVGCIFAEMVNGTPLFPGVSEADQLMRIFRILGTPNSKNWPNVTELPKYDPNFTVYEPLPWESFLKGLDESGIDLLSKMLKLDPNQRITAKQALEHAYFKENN"}
{"data": "Set 1", "Structure (SMILES)": "CNC(=O)c1ccc(-c2cnn3ccc(C(=O)N(C)c4ccc(Cl)c(C(=O)OC)c4)cc23)cc1", "organism": "Cryptosporidium parvum", "host": "neonatal calves", "dose": "dose not given", "reading": "direction not given"}
{"conditions": "day 9 post-treatment", "fecal consistency score": "1 and 2 and 3"}
{"conditions": "day 14 post-treatment", "fecal consistency score": 1}
{"conditions": "day 0 post-treatment", "fecal consistency score": "3 and 2"}
{"conditions": "day 7 post-treatment", "fecal consistency score": "1 and 2"}
{"data": "Set 2", "target": "Bromodomain-containing protein 4, BD1 (BRD4, Homo sapiens, UniProt O60885)", "observed": "acetyl-histone H4 peptide binding", "method": "AlphaScreen displacement", "concentration": "50 µM"}
{"SMILES": "CN1C(=O)NC(=O)C(=CNc2ccc(F)cc2)C1=O", "inhibition": "3.9%"}
{"SMILES": "COc1cc(C2=C(c3c[nH]c4ccccc34)C(=O)NC2=O)cc(OC)c1OC", "inhibition": "86%"}
{"SMILES": "O=C1NC(=O)N(c2ccc(F)cc2)C(=O)C1=CNc1ccc(F)cc1", "inhibition": "9.25%"}
{"SMILES": "CN1C(=O)C(=CNc2cccc(Cl)c2)C(=O)NC1=S", "inhibition": "11.6%"}
{"data": "Set 3", "organism": "Plasmodium berghei", "mode": "inhibitor", "cell line": "Huh-7", "strain": "GFP-expressing sporozoites, liver stage", "concentration": "10 µM", "time": "24 h", "relative to": "untreated control"}
{"Structure (SMILES)": "NCC(CC(=O)O)c1ccc(Cl)cc1 (stereo not drawn)", "infection rate": "92.2%"}
{"Structure (SMILES)": "C=CC[C@]1(O)CC[C@H]2[C@@H]3CCC4=CC(=O)CCC4=C3C=C[C@@]21C", "infection rate": "71.5%"}
{"Structure (SMILES)": "COP(=O)(OC)OC=C(Cl)Cl", "infection rate": "84.3%"}
{"Structure (SMILES)": "CC(C)N(CCC(C(N)=O)(c1ccccc1)c1ccccn1)C(C)C (stereo not drawn)", "infection rate": "111%"}
{"Structure (SMILES)": "Cc1cc(O)ccc1Cl", "infection rate": "116%"}
{"Structure (SMILES)": "CC(NC(C)(C)C)C(=O)c1cccc(Cl)c1 (stereo not drawn)", "infection rate": "92.7%"}
{"Structure (SMILES)": "Cc1cccc(C)c1NC1=NCCCS1", "infection rate": "4.66%"}
{"data": "Mixed results"}
{"SMILES": "Cc1cc(NC(=O)c2cccc(S(F)(F)(F)(F)F)c2)cc(-n2ccn3nc(-c4cccnc4)cc23)c1", "target": "Discoidin domain-containing receptor 2 (DDR2, Homo sapiens, UniProt Q16832)", "assay": "target engagement, NanoBRET", "test system": "live cells", "quantity": "EC50", "result": "1090 nM and 5670 nM and 1440 nM"}
{"SMILES": "Cn1nc(C(F)(F)F)cc1-c1cnc(N2CCc3cc(S(=O)(=O)Nc4c(F)cc(Cl)cc4F)cc(N4CCCC4=O)c32)nc1", "target": "Serine/threonine-protein kinase PknB (pknB, Mycobacterium tuberculosis, UniProt P9WI81)", "assay": "cell-free assay, competition with immobilised ligand", "conditions": "1 µM", "quantity": "remaining binding", "result": "100%"}
{"SMILES": "C[C@@H]1CN(c2cc(-c3nn(C)c4ccc(OC5(C)CC5)cc34)ncn2)C[C@H](C)O1", "target": "Cyclin-dependent kinase 2 homolog (CRK2, Plasmodium falciparum, UniProt P61075)", "assay": "cell-free assay, competition with immobilised ligand", "conditions": "1 µM", "quantity": "remaining binding", "result": "94%"}
{"note": "Excerpt of the above (set 3):"}
{"Structure (SMILES)": "Cc1cc(O)ccc1Cl", "infection rate": "116%"}
{"Structure (SMILES)": "NCC(CC(=O)O)c1ccc(Cl)cc1 (stereo not drawn)", "infection rate": "92.2%"}
